# Results gathered from unrelated publications.
# Every numbered part comes from another study and shows a few of its results, in no order.
# UniProt P29320, sequence (whole entry, looked up): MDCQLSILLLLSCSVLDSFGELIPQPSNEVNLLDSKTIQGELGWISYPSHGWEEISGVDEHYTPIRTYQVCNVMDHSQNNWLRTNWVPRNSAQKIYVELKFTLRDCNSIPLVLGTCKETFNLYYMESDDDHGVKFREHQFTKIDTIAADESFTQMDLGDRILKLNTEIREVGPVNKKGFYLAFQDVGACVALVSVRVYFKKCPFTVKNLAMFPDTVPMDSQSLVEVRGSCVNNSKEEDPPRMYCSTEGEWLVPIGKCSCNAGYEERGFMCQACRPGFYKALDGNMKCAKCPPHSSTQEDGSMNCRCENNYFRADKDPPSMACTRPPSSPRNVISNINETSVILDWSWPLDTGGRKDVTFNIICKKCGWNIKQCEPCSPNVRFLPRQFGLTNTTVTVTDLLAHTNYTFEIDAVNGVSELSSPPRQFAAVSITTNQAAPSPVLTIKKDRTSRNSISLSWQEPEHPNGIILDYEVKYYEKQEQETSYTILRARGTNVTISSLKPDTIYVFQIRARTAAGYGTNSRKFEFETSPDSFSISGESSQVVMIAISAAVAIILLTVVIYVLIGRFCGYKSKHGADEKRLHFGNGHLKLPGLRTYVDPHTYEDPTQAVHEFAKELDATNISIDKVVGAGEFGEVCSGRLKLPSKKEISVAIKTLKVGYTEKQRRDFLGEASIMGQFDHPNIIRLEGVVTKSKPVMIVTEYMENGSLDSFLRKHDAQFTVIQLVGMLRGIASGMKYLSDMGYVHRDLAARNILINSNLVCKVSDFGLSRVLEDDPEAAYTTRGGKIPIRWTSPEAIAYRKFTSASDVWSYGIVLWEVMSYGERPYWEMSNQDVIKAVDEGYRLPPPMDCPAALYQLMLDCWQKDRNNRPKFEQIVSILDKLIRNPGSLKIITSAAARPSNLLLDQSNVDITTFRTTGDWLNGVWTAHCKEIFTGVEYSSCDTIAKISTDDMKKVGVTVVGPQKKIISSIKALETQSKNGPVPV
# UniProt Q96PY6, sequence (whole entry, looked up): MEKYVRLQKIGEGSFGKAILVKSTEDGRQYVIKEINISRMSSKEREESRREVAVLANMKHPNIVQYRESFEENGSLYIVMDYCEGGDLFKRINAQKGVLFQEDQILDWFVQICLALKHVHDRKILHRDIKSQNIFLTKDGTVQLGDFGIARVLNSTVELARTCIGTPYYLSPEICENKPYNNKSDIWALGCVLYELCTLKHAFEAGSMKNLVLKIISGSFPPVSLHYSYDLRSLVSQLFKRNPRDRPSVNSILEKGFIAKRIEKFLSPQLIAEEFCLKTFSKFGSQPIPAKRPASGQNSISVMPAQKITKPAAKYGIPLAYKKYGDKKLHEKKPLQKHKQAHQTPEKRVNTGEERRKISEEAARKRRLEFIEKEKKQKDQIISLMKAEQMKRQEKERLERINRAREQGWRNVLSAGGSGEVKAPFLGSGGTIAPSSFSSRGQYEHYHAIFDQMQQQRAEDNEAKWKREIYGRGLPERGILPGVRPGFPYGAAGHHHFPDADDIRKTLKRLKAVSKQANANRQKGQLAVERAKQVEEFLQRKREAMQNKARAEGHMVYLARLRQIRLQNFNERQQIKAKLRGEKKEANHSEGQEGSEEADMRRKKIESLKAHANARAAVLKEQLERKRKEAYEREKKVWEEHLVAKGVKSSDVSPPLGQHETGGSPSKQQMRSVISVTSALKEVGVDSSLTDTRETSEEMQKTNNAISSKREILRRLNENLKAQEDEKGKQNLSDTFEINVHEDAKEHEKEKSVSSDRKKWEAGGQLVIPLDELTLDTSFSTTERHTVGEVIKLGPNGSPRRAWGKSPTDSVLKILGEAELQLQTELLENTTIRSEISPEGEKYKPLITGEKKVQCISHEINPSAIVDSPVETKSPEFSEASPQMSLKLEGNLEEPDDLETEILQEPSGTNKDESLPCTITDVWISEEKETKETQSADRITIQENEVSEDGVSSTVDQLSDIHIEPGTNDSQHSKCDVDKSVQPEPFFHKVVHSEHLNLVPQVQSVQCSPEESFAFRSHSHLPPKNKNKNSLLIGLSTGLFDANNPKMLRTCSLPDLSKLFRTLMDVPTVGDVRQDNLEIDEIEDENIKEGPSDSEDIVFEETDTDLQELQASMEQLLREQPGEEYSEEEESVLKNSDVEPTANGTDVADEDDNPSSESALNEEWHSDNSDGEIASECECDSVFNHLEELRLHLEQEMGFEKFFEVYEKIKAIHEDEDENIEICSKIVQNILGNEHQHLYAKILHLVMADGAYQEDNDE
# UniProt Q9UL54, sequence (whole entry, looked up): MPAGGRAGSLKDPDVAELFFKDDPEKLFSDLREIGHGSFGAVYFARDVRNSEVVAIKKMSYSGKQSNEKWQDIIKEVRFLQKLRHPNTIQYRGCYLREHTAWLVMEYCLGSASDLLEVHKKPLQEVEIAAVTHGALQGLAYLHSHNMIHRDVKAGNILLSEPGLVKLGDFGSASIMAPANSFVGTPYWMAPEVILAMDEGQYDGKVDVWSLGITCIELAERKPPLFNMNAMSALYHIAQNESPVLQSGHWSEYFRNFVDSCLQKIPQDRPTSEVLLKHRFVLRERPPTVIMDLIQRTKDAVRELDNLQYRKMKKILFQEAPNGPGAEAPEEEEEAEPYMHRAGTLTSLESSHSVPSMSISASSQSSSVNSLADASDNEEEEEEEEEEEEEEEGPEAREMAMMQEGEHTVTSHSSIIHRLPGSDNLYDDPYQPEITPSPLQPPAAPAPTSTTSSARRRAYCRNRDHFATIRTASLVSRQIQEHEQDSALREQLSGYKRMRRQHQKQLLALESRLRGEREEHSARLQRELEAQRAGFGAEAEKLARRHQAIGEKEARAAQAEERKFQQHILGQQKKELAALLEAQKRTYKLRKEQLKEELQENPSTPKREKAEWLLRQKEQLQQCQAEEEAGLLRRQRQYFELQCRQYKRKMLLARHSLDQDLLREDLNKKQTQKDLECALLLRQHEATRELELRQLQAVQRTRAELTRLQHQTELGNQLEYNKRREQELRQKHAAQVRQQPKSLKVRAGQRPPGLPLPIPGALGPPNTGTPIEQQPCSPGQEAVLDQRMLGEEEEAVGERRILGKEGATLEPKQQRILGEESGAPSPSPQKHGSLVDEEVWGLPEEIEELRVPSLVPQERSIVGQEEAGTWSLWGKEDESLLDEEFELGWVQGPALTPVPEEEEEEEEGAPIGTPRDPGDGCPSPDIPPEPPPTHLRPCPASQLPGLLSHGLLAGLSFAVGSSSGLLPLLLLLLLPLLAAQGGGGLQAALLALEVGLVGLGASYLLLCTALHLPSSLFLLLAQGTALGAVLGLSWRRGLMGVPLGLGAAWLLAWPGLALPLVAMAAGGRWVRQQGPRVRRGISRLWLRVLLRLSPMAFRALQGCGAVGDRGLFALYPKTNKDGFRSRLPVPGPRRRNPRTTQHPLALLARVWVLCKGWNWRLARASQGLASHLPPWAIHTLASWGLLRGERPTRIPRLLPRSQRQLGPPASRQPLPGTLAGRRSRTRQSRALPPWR
# UniProt Q13131, sequence (whole entry, looked up): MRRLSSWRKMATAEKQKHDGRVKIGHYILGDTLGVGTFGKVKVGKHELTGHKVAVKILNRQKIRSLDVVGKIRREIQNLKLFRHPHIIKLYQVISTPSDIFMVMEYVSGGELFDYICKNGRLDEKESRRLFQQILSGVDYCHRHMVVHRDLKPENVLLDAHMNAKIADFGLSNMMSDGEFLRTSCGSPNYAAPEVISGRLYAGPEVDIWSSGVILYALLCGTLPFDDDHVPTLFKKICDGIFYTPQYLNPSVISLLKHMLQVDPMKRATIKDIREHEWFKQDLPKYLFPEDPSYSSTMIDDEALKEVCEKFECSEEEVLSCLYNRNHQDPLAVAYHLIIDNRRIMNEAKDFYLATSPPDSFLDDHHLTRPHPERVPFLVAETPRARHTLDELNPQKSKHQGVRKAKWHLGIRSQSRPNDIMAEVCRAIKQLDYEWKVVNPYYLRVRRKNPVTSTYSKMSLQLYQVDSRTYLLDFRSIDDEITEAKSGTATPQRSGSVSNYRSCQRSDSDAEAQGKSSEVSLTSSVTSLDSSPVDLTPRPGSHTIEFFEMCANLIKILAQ

# Sample 1 — SMILES: Cc1nc(-c2ccccc2)c(-c2ccncc2)o1; observed: enzyme activity; action: inhibitor; concentration: 0.5 µM; reference: control
target,remaining activity
"MAP3K5 (Homo sapiens, UniProt Q99683)",102%
"FGFR1 (Homo sapiens, UniProt P11362)",90.9%
"LCK (Homo sapiens, UniProt P06239)",99.7%
"GRK7 (Homo sapiens, UniProt Q8WTQ7)",98.3%
"TAOK2 (Homo sapiens, UniProt Q9UL54)",101%
"MERTK (Homo sapiens, UniProt Q12866)",85.6%
"EPHA3 (Homo sapiens, UniProt P29320)",109%
"NEK6 (Homo sapiens, UniProt Q9HC98)",94.4%
"NEK1 (Homo sapiens, UniProt Q96PY6)",103%

# Sample 2 — method: DNA-protein interaction ELISA; form: double-stranded DNA, one strand shown; sample: in vitro, bacterial lysate; concentration: not given; setting: whole dsDNA probe, crude lysate protein; reference: highest signal in screen; reading: higher = stronger binding
# Target: Probable WRKY transcription factor 11, DNA-binding domain (WRKY11, Arabidopsis thaliana, UniProt Q9SV15, residues 228-325)
# Target sequence (chain): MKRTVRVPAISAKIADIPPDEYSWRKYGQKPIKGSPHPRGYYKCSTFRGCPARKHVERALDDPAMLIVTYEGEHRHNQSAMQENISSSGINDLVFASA
Oligonucleotide,relative absorbance
AAAAAAACACCTGTATAGCATGGACGAAAA,19.6 % of maximum
AAAAAATTACGTTTGTATTTGTAAAA,14.7 % of maximum
AAAAAATTCGGGACTAGTAGTGGTGAAAAA,15.8 % of maximum
AAAAAAGCCATCATGGTTAGTGTACAAAAA,16.1 % of maximum
AAAAAATACTCTTCCTCGTTCTTGGTAAAA,13.8 % of maximum
AAAAAAAACAAAACCTCCTAATAGCGAAAA,9.8 % of maximum
AAAAAAGGCTGTGGCCAATGTTCGTAAAAA,14.7 % of maximum
AAAAAAGTCTCACCTTTAGTCTTAATAAAA,19 % of maximum

# Sample 3 — observed: cell-free assay; method: competition with immobilised ligand; concentration: 0.1 µM
# SMILES: Nc1c(C(=O)NCc2ccc(C(=O)NCCCC3CCCCC3)cc2)cnn1-c1ccccc1
target,remaining binding
"EPHA2 (Homo sapiens, UniProt P29317)",100%
"ROS1 (Homo sapiens, UniProt P08922)",83%
"PRKAA1 (Homo sapiens, UniProt Q13131)",100%
"WNK1 (Homo sapiens, UniProt Q9H4A3)",100%
"PAK1 (Homo sapiens, UniProt Q13153)",100%

# Sample 4 — method: universal PBM; form: double-stranded DNA, one strand shown; sample: in vitro; concentration: 600 nM; reading: higher = stronger binding
# Target: Sal-like protein 4, full length isoform A (SALL4, Homo sapiens, UniProt Q9UJQ4, residues 1-1053)
# UniProt Q9UJQ4, sequence (whole entry, looked up): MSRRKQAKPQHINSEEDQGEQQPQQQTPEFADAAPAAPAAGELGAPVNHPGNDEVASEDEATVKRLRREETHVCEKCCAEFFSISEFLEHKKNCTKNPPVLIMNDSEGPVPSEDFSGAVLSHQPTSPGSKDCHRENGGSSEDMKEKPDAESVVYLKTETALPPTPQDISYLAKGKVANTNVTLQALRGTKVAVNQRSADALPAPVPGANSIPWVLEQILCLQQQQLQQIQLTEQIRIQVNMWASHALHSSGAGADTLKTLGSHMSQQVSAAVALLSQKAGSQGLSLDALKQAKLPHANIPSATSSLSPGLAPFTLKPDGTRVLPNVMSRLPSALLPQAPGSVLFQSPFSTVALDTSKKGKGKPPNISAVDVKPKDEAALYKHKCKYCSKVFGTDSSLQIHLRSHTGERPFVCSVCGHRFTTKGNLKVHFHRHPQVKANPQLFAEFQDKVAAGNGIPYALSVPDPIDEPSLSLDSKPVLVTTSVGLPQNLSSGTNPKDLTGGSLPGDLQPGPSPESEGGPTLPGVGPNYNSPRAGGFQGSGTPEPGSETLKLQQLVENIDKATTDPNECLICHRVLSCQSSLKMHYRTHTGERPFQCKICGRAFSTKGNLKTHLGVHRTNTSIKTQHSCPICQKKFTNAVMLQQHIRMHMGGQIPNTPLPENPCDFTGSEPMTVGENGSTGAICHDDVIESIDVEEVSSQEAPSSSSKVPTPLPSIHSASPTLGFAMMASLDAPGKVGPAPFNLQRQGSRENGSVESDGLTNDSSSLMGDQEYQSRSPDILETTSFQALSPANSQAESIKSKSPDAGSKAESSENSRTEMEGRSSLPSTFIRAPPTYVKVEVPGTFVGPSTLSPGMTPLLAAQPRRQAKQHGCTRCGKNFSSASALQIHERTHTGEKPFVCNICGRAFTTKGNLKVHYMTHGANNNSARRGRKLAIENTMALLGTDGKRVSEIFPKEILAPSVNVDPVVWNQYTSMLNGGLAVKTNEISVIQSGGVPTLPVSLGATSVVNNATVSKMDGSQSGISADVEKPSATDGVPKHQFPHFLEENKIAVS
# Setting: 8-mer, flanks averaged, mean of replicates
Oligonucleotide,E-score
GCTCCGGA,-0.228
AATTTATG,0.383
AAACAAGG,-0.058
AGTGCCTA,0.0177
GAAGCCCA,-0.193
CTGGGCGC,-0.29
GTCTCCTA,-0.0219
AAATCTTC,0.14

# A few entries again (sample 1):
target,remaining activity
"TAOK2 (Homo sapiens, UniProt Q9UL54)",101%
"MERTK (Homo sapiens, UniProt Q12866)",85.6%
"EPHA3 (Homo sapiens, UniProt P29320)",109%
"NEK6 (Homo sapiens, UniProt Q9HC98)",94.4%
"NEK1 (Homo sapiens, UniProt Q96PY6)",103%
